Experimental data collected from several papers.
Each line is one published result; not all experiments were run side by side. ± marks the error that the study gave.

SMILES | test | test system | setting | scale | endpoint | value
CCCCCCCC(=O)SCC/C=C/[C@@H]1CC(=O)NCc2nc(cs2)C2=N[C@@](C)(CS2)C(=O)N[C@@H](C(C)C)C(=O)N1 | – | female NIH Swiss mice | intravenous bolus, 5 mg/kg, two-compartment model | – | volume of distribution at steady state | 12.1 L/kg
CC(C)C[C@H]1NC(=O)[C@H](NC(=O)CN)CSSC[C@H]2NC(=O)[C@H]3CSSC[C@H](C(=O)N[C@H](CC(N)=O)C(=O)N[C@H](Cc4ccccc4)C(=O)N[C@H](CO)C(=O)N[C@H](Cc4ccccc4)C(N)=O)NC(=O)[C@@H](CC(C)C)NC(=O)[C@@H](CCCCN)NC(=O)[C@@H](Cc4ccccc4)NC(=O)[C@@H](CC(C)C)NC(=O)[C@@H](CCCCN)NC(=O)[C@@H](CO)NC(=O)[C@@H](CSSC[C@@H](NC(=O)[C@@H](CCCCN)NC(=O)[C@@H](Cc4c[nH]c5ccccc45)NC(=O)[C@@H](Cc4c[nH]c5ccccc45)NC(=O)[C@@H](Cc4ccccc4)NC(=O)[C@@H](CCC(=O)O)NC1=O)C(=O)N[C@H](CC(N)=O)C(=O)N1CCC[C@@H]1C(=O)N[C@H](CC(N)=O)C(=O)N[C@H](CC(=O)O)C(=O)N[C@H](CC(=O)O)C(=O)N[C@H](CCCCN)C(=O)N3)NC(=O)[C@@H](CCCCN)NC(=O)[C@@H](CC(C)C)NC(=O)[C@@H](CCCCN)NC(=O)[C@H]1CCCN1C(=O)[C@@H](CCCNC(=N)N)NC2=O | – | D2.mdx mice, all tissues | dose not given, one week after dosing stopped | – | concentration decrease | > 50%
CC(C)C[C@H](NC(=O)[C@H](CCCCN)NC(=O)[C@H](CCC(=O)O)NC(=O)[C@H](C)NC(=O)[C@@H](NC(=O)[C@H](CCCCN)NC(=O)[C@H](CC(=O)O)NC(=O)[C@H](Cc1ccc(O)cc1)NC(=O)[C@H](Cc1ccccc1)NC(=O)[C@H](C)NC(=O)[C@H](CCCCN)NC(=O)[C@H](CC(C)C)NC(=O)[C@H](Cc1c[nH]c2ccccc12)NC(=O)[C@@H](N)CC(=O)O)C(C)C)C(=O)N[C@@H](CCCCN)C(=O)N[C@@H](CCC(=O)O)C(=O)N[C@@H](C)C(=O)N[C@@H](Cc1ccccc1)C(=O)N1CCC[C@H]1C(=O)N[C@@H](CC(=O)O)C(=O)N[C@@H](Cc1c[nH]c2ccccc12)C(=O)N[C@@H](C)C(=O)N[C@@H](CCCCN)C(=O)N[C@@H](C)C(=O)N[C@@H](C)C(=O)N[C@@H](Cc1ccc(O)cc1)C(=O)N[C@@H](CC(=O)O)C(=O)N[C@@H](CCCCN)C(=O)N[C@@H](C)C(=O)N[C@@H](C)C(=O)N[C@@H](CCC(=O)O)C(=O)N[C@@H](CCCCN)C(=O)N[C@@H](C)C(=O)N[C@@H](CCCCN)C(=O)N[C@@H](CCC(=O)O)C(=O)N[C@@H](C)C(=O)N[C@@H](C)C(=O)O | LC-MS/MS | cynomolgus monkey, male, plasma | IV infusion, 8 mg/kg/dose, day 1, 30 min infusion | – | Cmax | 108000 ng/mL
CC(=CCC(O)C(C)=Cc1csc(C)n1)CC=CC(C)C(O)C(C)C(=O)C(C)(C)C(O)CC(=O)O (stereo not shown) | – | human, plasma | intravenous infusion, 27 mg/m2 KOS-1584, 3 h infusion, cycle 1 | reference: metabolite over KOS-1584 | AUC ratio | 10.7 ± 2.87%
CC[C@H](C)[C@H](NC(=O)[C@H](CCC(=O)O)NC(=O)[C@H](CCC(=O)O)NC(=O)[C@H](Cc1ccccc1)NC(=O)[C@H](CC(=O)O)NC(=O)CNC(=O)[C@H](CC(N)=O)NC(=O)CNC(=O)CNC(=O)CNC(=O)CNC(=O)[C@@H]1CCCN1C(=O)[C@H](CCCNC(=N)N)NC(=O)[C@@H]1CCCN1C(=O)[C@H](N)Cc1ccccc1)C(=O)N1CCC[C@H]1C(=O)N[C@@H](CCC(=O)O)C(=O)N[C@@H](CCC(=O)O)C(=O)N[C@@H](Cc1ccc(O)cc1)C(=O)N[C@@H](CC(C)C)C(=O)O | LC-MS/MS | human plasma | 75 days, -80 °C, stability, nominal 240.0 ng/mL | – | concentration | 239 ± 9.8 ng/mL
CN(C)C(CNC(=O)Nc1cc(C(F)(F)F)ccc1N1CCOCC1)c1ccncc1 (stereo not shown) | – | mouse, serum | intraperitoneal, 180 mg/kg single dose | – | serum magnesium | 2.6 mg/dL
CC[C@H](C)[C@H](NC(=O)[C@H](C)NC(=O)CNC(=O)[C@@H](N)CCSC)C(=O)N[C@@H](C)C(=O)N[C@@H](CCCCN)C(=O)N[C@@H](CCCNC(=N)N)C(=O)N[C@H](C(=O)N[C@@H](C)C(=O)N[C@@H](CCCCN)C(=O)N[C@@H](Cc1ccccc1)C(=O)NCC(=O)N[C@@H](Cc1c[nH]c2ccccc12)C(=O)N1CCC[C@H]1C(=O)N[C@@H](Cc1ccccc1)C(=O)N[C@H](C(=O)N[C@@H](CCCCN)C(=O)N[C@@H](CCCCN)C(=O)N[C@@H](Cc1ccccc1)C(=O)N[C@@H](Cc1ccc(O)cc1)C(=O)N[C@@H](CCCCN)C(=O)N[C@@H](CCC(N)=O)C(=O)N[C@H](C(=O)N[C@@H](CCSC)C(=O)N[C@@H](CCC(N)=O)C(=O)N[C@@H](Cc1ccccc1)C(=O)N[C@H](C(=O)NCC(=O)N[C@@H](CCC(N)=O)C(=O)NCC(=O)N[C@@H](Cc1c[nH]c2ccccc12)C(=O)N[C@H](C(=O)N[C@H](C(=O)N[C@@H](CC(=O)O)C(=O)N[C@@H](CCC(N)=O)C(=O)N[C@H](C(=O)N[C@@H](CCC(=O)O)C(=O)N[C@@H](CCCCN)C(=O)N[C@@H](Cc1c[nH]c2ccccc12)C(=O)N[C@@H](CC(C)C)C(=O)N[C@@H](CCCCN)C(=O)N[C@@H](CCCNC(=N)N)C(=O)N[C@@H](Cc1c[nH]cn1)C(=O)O)[C@@H](C)CC)[C@@H](C)CC)[C@@H](C)O)[C@@H](C)CC)[C@@H](C)CC)[C@@H](C)CC)C(C)C | thermal unfolding, far-UV CD | 10 mM sodium phosphate | 5-20 µM, pH 7.2 | – | Tm | 49.1 ± 0.2 °C
CC(CCC(=O)NCC(=O)O)C1CCC2C3CCC4CC(OC5OC(C(=O)O)C(O)C(O)C5O)CCC4(C)C3CC(O)C12C (stereo not shown) | item: glucuronide to parent ratio | human, plasma | dose not given, sex-adjusted | reference: C/C over T/T | ratio of metabolic ratios | 5.57
CN[C@](C)(C[18F])C(=O)O | – | mouse, blood | 1 h, tumour-bearing | – | tracer uptake | 1 %ID/g
COC(=O)C[C@](O)(CCCC(C)(C)OC(C)=O)C(=O)O[C@@H]1C(OC)=C[C@]23CCCN2CCc2cc4c(cc2[C@H]13)OCO4 | – | CD1 mice, plasma | subcutaneous, 1 mg/kg, 2 h | – | concentration | 155 ng/mL
CN(C)c1ccc(C(=O)NCCCCN2CCN(c3ccccc3O[11CH3])CC2)cc1 | – | male Sprague Dawley rat, lung, liver, kidney, muscle, heart | concentration not given, 30 min, with: ciclosporin | reference: untreated | peripheral organ uptake | no effect
CC[C@H](C)C(=O)N1CCC(NC(=O)Nc2ccc(OC(F)(F)F)c(F)c2)CC1 | – | human, plasma | oral, 2 mg, single dose, healthy volunteers | – | Cmax | 4.69 ng/mL
[11CH3]n1c(=O)n(CCCO)c(=O)c2c1nc(Oc1cccc(OC(F)(F)F)c1)n2Cc1ccc(Cl)cc1 | – | Sprague Dawley rat, brain | – | reference: 5 min over 60 min | brain uptake ratio | 2.04
COc1ccc(C)cc1NC(=O)OC1CC2CCCC(C1)N2Cc1ccc(CC[18F])cc1 (stereo not shown) | – | mouse, fat | 5 min, tumour-bearing | – | tracer uptake | 2.33 %ID/g
CC(C)[C@H](NC(=O)CNC(=O)[C@H](CCC(N)=O)NC(=O)[C@H](C)N)C(=O)O | – | human | single dose, 30 mg/kg | – | possibly related adverse events | 0%
CC[C@@H](C)[C@@H](NC(=O)[C@@H](C)NC(=O)[C@@H](CCCCN)NC(=O)[C@@H](CC(C)C)NC(=O)[C@@H](C)NC(=O)[C@H](NC(=O)[C@@H](Cc1c[nH]cn1)NC(=O)[C@@H](CC(C)C)NC(=O)[C@H](NC(=O)[C@H](NC(=O)[C@@H](CCCCN)NC(=O)[C@@H](CCCCN)NC(=O)[C@@H](C)NC(=O)[C@@H](CO)NC(=O)[C@@H](CCCCN)NC(=O)[C@@H](Cc1ccccc1)NC(=O)[C@H](NC(=O)[C@@H](CCCCN)NC(=O)[C@@H](CC(C)C)NC(=O)[C@@H](Cc1ccccc1)NC(=O)[C@@H](CO)NC(=O)[C@@H](CCCCN)NC(=O)[C@@H](Cc1c[nH]c2ccccc12)NC(=O)[C@@H](CCCCN)NC(C)=O)[C@H](C)O)[C@H](C)O)C(C)C)[C@H](C)O)C(=O)N[C@H](CO)C(=O)N[C@H](CO)C(N)=O | RP-HPLC C8 | – | pH 2 | – | retention time | 76.8 min
